Assay results from different studies.
Lines come from different studies, so protocols differ. Several values in a cell are separate wells, animals, samples, runs or records. Numbers after ± are the reported error.

SMILES | test system | setting | measurement | result
C=CC(=O)N1CCC(Oc2cc3c(Nc4ccc(Cl)c(Cl)c4F)ncnc3cc2OC)CC1 | Sprague-Dawley rat, male, plasma | oral, 2 mg/kg, together with: vehicle pretreatment | elimination half-life | 2.72 ± 0.85 h
C=CC(=O)N1CCC[C@@H](n2nc(-c3ccc(Oc4ccccc4)cc3)c3c(N)ncnc32)C1 | Wistar rat, plasma | oral, dose not given, suspension | elimination half-life | 3.41 ± 1.36 h
O=C(O)c1cc(O)c(O)c(O)c1 | rat, plasma | oral, 500 mg/kg extract, extract | elimination rate constant | 7.78e-05 ± 2.78e-06 s⁻¹
C=CC(=O)N1CCC[C@@H](n2nc(-c3ccc(Oc4ccccc4)cc3)c3c(N)ncnc32)C1 | male Wistar rat, plasma | oral, 40 mg/kg | elimination rate constant | 7.67e-05 s⁻¹
O=C1C[C@@H](c2ccc(O)cc2)Oc2cc(O)cc(O)c21 | Sprague-Dawley rat, plasma | intravenous bolus, 1 mg/kg | elimination rate constant | 0.000117 ± 0.000147 s⁻¹
Nc1nc(O)c2ncn(COC(CO)CO)c2n1 | Sprague-Dawley rat, male | oral, 10 mg/kg | elimination rate constant | 0.000108 ± 1.83e-05 s⁻¹
CCc1c(-c2ccccc2)c(-c2ccccc2)nn1-c1ccccc1-c1cccc(OCC(=O)O)c1 | Sprague-Dawley rat | oral | elimination rate constant | 6.42e-05 s⁻¹ and 6.52e-05 s⁻¹ and 5.87e-05 s⁻¹
CC(C)c1nc(N(C)S(C)(=O)=O)nc(-c2ccc(F)cc2)c1/C=C/[C@@H](O)C[C@@H](O)CC(=O)O | Wistar albino rat, both sexes, plasma | oral, 20 mg/kg | elimination rate constant | 7.78e-06 s⁻¹ and 1.83e-05 s⁻¹ and 3.33e-05 s⁻¹ and 4.72e-06 s⁻¹
O=c1oc2c(O)c(O)cc3c(=O)oc4c(O)c(O)cc1c4c23 | rat, plasma | oral, 1000 mg/kg extract, possible metabolite or extract component | elimination rate constant | 0.000108 ± 2.5e-05 s⁻¹
N#C[C@@]12C[C@@H]1[C@@H](n1cnc3c(N[C@@H](C4CCC4)C4CC4)nc(I)nc31)[C@H](O)[C@@H]2O | Wistar rats male, plasma | oral, 10.0 mg/kg | elimination rate constant | 0.00011 s⁻¹
Cc1cc(C)cc(C(=O)c2c(C(C)C)c(=O)[nH]c(=O)n2Cc2ccnc(N)c2)c1 | Sprague-Dawley rats, male, plasma | intravenous, 20 mg/kg | elimination rate constant | 0.000152 ± 9.78e-05 s⁻¹
